Experimental data from different studies.
Protocols differ between the studies behind these lines. Numbers after ± are the reported error.

CCCC[C@H](NC(=O)CNC(=O)CNC(=O)CN1CCN(CC(=O)O)CCN(CC(=O)O)CC1)C(=O)N[C@H]1CC(=O)NCCCC[C@@H](C(N)=O)NC(=O)[C@H](Cc2c[nH]c3ccccc23)NC(=O)[C@H](CCCNC(=N)N)NC(=O)[C@@H](Cc2ccccc2)NC(=O)[C@H](Cc2c[nH]cn2)NC1=O [copper-64 labelled]  tissue uptake (female C57 mouse, B16/F1 melanoma, bone; intravenous, 0.037 MBq, 2 h): 0.27 ± 0.05 %ID/g
C[Si]1(C[C@H](CN)CC(=O)O)CCCC1  performance time (neuromuscular coordination; Wistar rat male; oral, 100 mg/kg, 2 h): 180 s
NCCCC[C@H](NC(=O)[C@@H]1CCCN1C(=O)[C@@H]1CSSC[C@H](NC(=O)CNC(=O)CNC(=O)CN)C(=O)N[C@@H](Cc2ccc(O)cc2)C(=O)N[C@@H](Cc2ccccc2)C(=O)N[C@@H](CCC(N)=O)C(=O)N[C@@H](CC(N)=O)C(=O)N1)C(=O)NCC(N)=O  therapeutic index (male Sprague Dawley rats; iv; baseline: NOAEL over NOEL): ~10
C[Si](C)(C)C[C@@H](CN)CC(=O)O  performance time (neuromuscular coordination; Wistar rat male; oral, 300 mg/kg, 2 h): 180 s
COc1cc(NC(C)=O)c2c(c1O)-c1c(OC)c(OC)cc3c1C(C2)N(C)CC3 (stereo not shown)  remaining compound (rat liver homogenate; 50 µg/mL, 4 h, room temperature, short-term storage): 92.4 ± 0.2%
Cc1ccc(OCC(=O)N(Cc2cccs2)c2ccn[nH]2)cc1  Cmax (male beagle dog, plasma; oral, 10 mg/kg, single dose): 33.7 ng/mL
Cc1cccc(CSc2nc(N)c(C#N)c(-c3cccc(O[11CH3])c3)c2C#N)n1  parent compound fraction (radio-HPLC; rat, brain homogenate; 15 min): > 99%
CC/C=C\C/C=C\C/C=C\C/C=C\C/C=C\CCCCOC(CC)C(=O)O (stereo not shown)  radioactivity concentration ([14C] label; male Wistar rat, muscle; oral, 100 mg/kg, 1 day): 1.2 µg equiv/g
COc1ccc(/C=C/c2ccc(-c3ccc(C)cn3)nc2)cc1  fluorescence quantum yield (CHCl3; together with: quinine bisulfate reference): 0.36
CC12CC(c3ccc(S(C)(=O)=O)cc3)C3=C4CCC(=O)C=C4CCC3C1CCC2(O)C(F)(F)C(F)(F)F (stereo not shown)  Tmax (human, plasma; oral, 4 mg, single dose): 2.5 h
COc1cc2c(cc1OC)CN(CCCCn1ccc3cc(OCC[18F])ccc31)C2  tracer uptake (male CD-1 mouse, muscle; intravenous, 280 kBq, 2 h): 1.86 %ID/g
CC(C)(C)ONc1nc(Nc2ccnc(C(F)(F)F)c2)nc(-c2cccc(C(F)(F)F)n2)n1  AUC(0-24 h) (female Balb/cA nude mice xenograft, plasma; oral, 54.14 mg/kg): 58900 ng·h/mL
COc1cc(/C=C/C(=O)O)ccc1O  freeze-thaw stability (human plasma; 400 ng/mL, 3 cycles): 100 ± 3.21%
Cn1c(=O)oc2ccc(-c3ccc(CC(C#N)NC(=O)C4CNCCCO4)c(F)c3)cc21 (stereo not shown)  subjects with adverse event (measured: blood triglycerides increased; human; 60 mg, treatment-related, single dose, fasted): 16.7%
N=C(N)NCCC[C@@H]1NC(=O)[C@H](Cc2c[nH]c3ccccc23)NC(=O)[C@@H](CC2CCCCC2)NC(=O)[C@@H]2CCCN2C(=O)[C@@H](NC(=O)CCc2ccccc2)CCCNC1=O  apparent central volume (V1/F) (C57BL/6J mice, brain; intravenous, 1 mg/kg, two-compartment model): 0.13 µg/(ng/g)
CC[C@H](C)[C@H](NC(=O)[C@H](CCCCN)NC(=O)[C@H](CS)NC(=O)[C@H](CC(N)=O)NC(=O)[C@H](C)NC(=O)[C@H](CCCNC(=N)N)NC(=O)[C@H](CCCNC(=N)N)NC(=O)[C@H](CC(N)=O)NC(=O)[C@H](CCCNC(=N)N)NC(=O)[C@@H](NC(=O)[C@H](CCCNC(=N)N)NC(=O)[C@H](CS)NC(=O)[C@H](CO)NC(=O)[C@@H](NC(=O)[C@@H](NC(=O)[C@H](CS)NC(=O)[C@H](CCCCN)NC(=O)[C@@H](N)CCCNC(=N)N)C(C)C)[C@@H](C)CC)[C@@H](C)CC)C(=O)N[C@@H](CC(C)C)C(=O)N[C@@H](CS)C(=O)N[C@@H](CC(N)=O)C(=O)O  single disulfide form (LC-MS; PBS; 0.1 mg/mL): 2%
COC(=O)/C=C/C(=O)c1ccc(OC)cc1  half-life (Sprague-Dawley rat, plasma; oral, 200 mg/kg): ~7.2 h
CC(C)C[C@@H](NC(=O)[C@H](NC(=O)[C@H]1CCCN1)[C@H](C)O)C(=O)N[C@H](Cc1c[nH]cn1)C(=O)N[C@@H](C(=O)N[C@H](Cc1c[nH]cn1)C(=O)N[C@H](CC(N)=O)C(=O)N[C@H](CCCNC(=N)N)C(=O)N[C@H](CCCNC(=N)N)C(=O)N[C@H](CCCNC(=N)N)C(=O)N[C@H](CCCNC(=N)N)C(=O)N[C@H](CCCNC(=N)N)C(N)=O)[C@H](C)O  MRT(0-inf) (Beagle dog, CSF; oral, 20 mg/kg): 155 ± 131 h
CC(C)CCCC(C)CCCC(C)CCOC1OC[C@@H](O)[C@H](O)[C@H]1O (stereo partly shown)  surface tension at CMC (drop shape tensiometry; water; room temperature): 28.6 mN/m
C[C@H](NC(=O)[C@H](C)NC(=O)[C@H](CCCNC(=N)N)NC(=O)[C@H](CCCNC(=N)N)NC(=O)[C@H](CCCNC(=N)N)NC(=O)[C@H](C)NC(=O)[C@H](C)NC(=O)[C@H](CCCNC(=N)N)NC(=O)[C@H](CCCNC(=N)N)NC(=O)[C@H](CCCNC(=N)N)NC(=O)[C@H](CCCNC(=N)N)NC(=O)c1ccc2c(c1)C(=O)OC21c2ccc(O)cc2Oc2cc(O)ccc21)C(=O)N[C@@H](CCCNC(=N)N)C(=O)N[C@@H](CCCNC(=N)N)C(=O)N[C@@H](CCCNC(=N)N)C(=O)N[C@@H](C)C(=O)N[C@@H](C)C(=O)N[C@@H](CCCNC(=N)N)C(=O)N[C@@H](CCCNC(=N)N)C(=O)N[C@@H](CCCNC(=N)N)C(=O)N[C@@H](CCCNC(=N)N)C(=O)O  uptake reduction (bovine cartilage, 90% GAG depleted; concentration not given; baseline: healthy cartilage): > 50%
O=C(NC1CCCC1)N1CCC=C(c2cc3c(Nc4cc5ncsc5cc4F)ncnc3s2)C1  intrinsic clearance (human liver microsomes; 1 µM): < 12 mL/min/g protein
COC(=O)c1ccc2c(c1)NC(=O)/C2=C(\Nc1ccc2c(c1)CCN2C(=O)CN1CCOCC1)c1ccccc1  microsomal CLint (metabolic stability; beagle dog, liver microsomes; 10 µM, pH 7.4): 120 µL/min/mg
Cc1ccc(/N=N/c2c(O)ccc3ccccc23)c(C)c1  MRT(0-inf) (Sprague-Dawley rats both sexes, whole blood; oral, 50 mg/kg): 2.61 h
CC[C@H](C)[C@H](N)C1=N[C@H](C(=O)N[C@@H](CC(C)C)C(=O)N[C@H](CCC(=O)O)C(=O)N[C@H](C(=O)N[C@H]2CCCCNC(=O)[C@H](CC(N)=O)NC(=O)[C@@H](CC(=O)O)NC(=O)[C@H](Cc3c[nH]cn3)NC(=O)[C@@H](Cc3ccccc3)NC(=O)[C@H]([C@@H](C)CC)NC(=O)[C@@H](CCCN)NC2=O)[C@@H](C)CC)CS1  epimerisation (TFA/TIPS/water; 30 min): > 15%
CCCC(CCC)NC(=O)c1ccc(OC2OC(C(=O)O)C(O)C(O)C2O)c(O)c1 (stereo not shown)  AUC(0-last) ratio (male Sprague-Dawley rats, plasma; oral, 200 mg/kg of parent drug; baseline: 200 over 20 mg/kg dose): 3.2
COC(=O)C1OC(Oc2c(-c3ccccc3)oc3cc(O)c(O)c(O)c3c2=O)C(O)C(O)C1O (stereo not shown)  organ weight (BALB/c mouse, kidney; 2 mg/kg): 1.37 ± 0.5 g
CC(C)C[C@H](NC(=O)C[C@H](O)[C@H](CC(C)C)NC(=O)[C@H](Cc1c[nH]cn1)NC(=O)CNC(=O)[C@@H](NC(=O)[C@H](C)NC(=O)[C@H](Cc1c[nH]c2ccccc12)NC(=O)[C@H](CCC(N)=O)NC(=O)[C@@H](Cc1ccccc1)NC(=O)CCNC(=O)CCNC(=O)CN1CCN(CC(=O)O)CCN(CC(=O)O)CCN(CC(=O)O)CC1)C(C)C)C(N)=O [lutetium-177 labelled]  absorbed dose (MIRD; mouse PC-3 xenograft, kidneys; intravenous, 50 MBq, with PA): 3.7 Gy
COc1cc(C)c(Cc2ccc(O)cc2)cc1[C@@H]1S[C@H](CO)[C@@H](O)[C@H](O)[C@H]1O  Tmax (Japanese T2DM patients, plasma; 1 mg luseogliflozin, day 7, once daily): 2.44 ± 1.32 h
N#Cc1cnc2cc(OCC3CCNCC3)c(F)cc2c1Nc1cc(F)c(OCc2cccc(Cl)n2)cc1Cl  Cmax (male beagle dog, plasma; oral, 5 mg/kg): 210 ng/mL
CC(=O)[CH](C(C)=O)[Pt-2]1([S+](C)C)[O]C(C)=CC(C)=[O+]1 (stereo not shown)  remaining in circulation (measured: platinum; rat, whole blood; iv, dose not given, 1 h): 40%
Cc1cc2c(cc1C1(c3ncc(C(=O)O)cn3)CC1)C(C)(C)CCC2(C)C  LDL level (Sprague-Dawley rat, male, plasma; oral, 100 mg/kg, 9 h, sesame oil vehicle): 7 ± 2.1 mg/dL
CC(C)CC(=O)C(=O)C(O)CO (stereo not shown)  surface tension decrease (aqueous buffer; 1 to 5 mM, pH 7.4): ~17 mN/m
C=C(c1ncc(C(=O)O)cn1)c1cc2c(cc1C)C(C)(C)CCC2(C)C  LDL level (Sprague-Dawley rat, male, plasma; oral, 100 mg/kg, 3 h, sesame oil vehicle): 19 ± 8.1 mg/dL
CSCOC1C(=O)C2(C)C(OCSC)CC3OCC3(OC(C)=O)C2C(OC(=O)c2ccccc2)C2(O)CC(OC(=O)C(O)C(C=C(C)C)NC(=O)OC(C)(C)C)C(C)=C1C2(C)C (stereo not shown)  clearance (female Sprague-Dawley rat, plasma; intravenous, 4 mg/kg): 66.7 mL/min/kg

Excerpt of the above:
CCCC[C@H](NC(=O)CNC(=O)CNC(=O)CN1CCN(CC(=O)O)CCN(CC(=O)O)CC1)C(=O)N[C@H]1CC(=O)NCCCC[C@@H](C(N)=O)NC(=O)[C@H](Cc2c[nH]c3ccccc23)NC(=O)[C@H](CCCNC(=N)N)NC(=O)[C@@H](Cc2ccccc2)NC(=O)[C@H](Cc2c[nH]cn2)NC1=O [copper-64 labelled]  tissue uptake (female C57 mouse, B16/F1 melanoma, bone; intravenous, 0.037 MBq, 2 h): 0.27 ± 0.05 %ID/g
COc1cc(/C=C/C(=O)O)ccc1O  freeze-thaw stability (human plasma; 400 ng/mL, 3 cycles): 100 ± 3.21%
